Assay results from different studies.
Numbered parts are unrelated; each lists some results of a single study. Positions count from the first letter of the parent shown.

Set 1
Target: Interferon regulatory factor 3, full length, phosphomimetic (IRF3, Homo sapiens, UniProt Q14653, residues 1-427, S386D/S396D/S398D/S402D/T404D/S405D)
Sequence of UniProt Q14653 (whole entry, unmodified, looked up): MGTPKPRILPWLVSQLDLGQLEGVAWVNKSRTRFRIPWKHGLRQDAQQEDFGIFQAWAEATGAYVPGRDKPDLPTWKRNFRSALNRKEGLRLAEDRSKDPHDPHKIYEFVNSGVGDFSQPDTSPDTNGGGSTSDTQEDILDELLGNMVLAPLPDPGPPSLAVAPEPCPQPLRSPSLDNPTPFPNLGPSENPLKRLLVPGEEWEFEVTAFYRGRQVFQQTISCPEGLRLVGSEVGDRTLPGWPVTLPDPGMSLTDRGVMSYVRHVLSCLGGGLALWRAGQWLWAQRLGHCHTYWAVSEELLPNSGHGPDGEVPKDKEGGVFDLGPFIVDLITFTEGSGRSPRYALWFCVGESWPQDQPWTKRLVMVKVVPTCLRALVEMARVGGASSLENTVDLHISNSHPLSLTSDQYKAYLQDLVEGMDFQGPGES
Method: protein-binding microarray
Molecule type: double-stranded DNA, one strand shown
Matrix: in vitro
Tested at: 2540 nM top
Notes: 60-bp whole probe
Added: salmon DNA 0.4 mg/ml
Baseline: random background probes
Reading: higher = stronger binding
Shared flanks, not repeated: GCCTAGCAC … GTCTTGATTCGCTTGACGCTGCTG
| Oligonucleotide | fitted relative affinity [z-score] |
| --- | --- |
| TTCGGTATCGACTTTCGGTTAGTGCTA | 2.49 |
| GAGGGTTTCGGTCTCGGGACGTGCTAG | 6.49 |
| GACGGACTGCTACAGCTGACGTGCTAG | -0.622 |
| TCAGCTTTCCTGATGACACTGTGCTAG | 1.45 |
| GGAGGCTCTTGCTACTGAAGGTGCTAG | -1.33 |
| ATTTATTTACTCTCTACATGGGTGCTA | 1.06 |
| TCAGTTTCCTCTTTCACACTGTGCTAG | 6.82 |
| CTGGCCTGGGGTCTGCAGAGGTGCTAG | -1.3 |
| CTAGGTATCCTTTTCCTTTAGTGCTAG | 8.33 |
| TTAGGACTGGGCTATCGGTTAGTGCTA | -0.931 |
| CTCGCTATGTTGTCCAGGCTGGTGCTA | -0.497 |
| TACGGTCTCGGTCTCGGGACGTGCTAG | 1.08 |
| GACGGACTGCTTAGCCTGACGTGCTAG | -0.514 |
| GACGGACTGGGGTTTCGAGACGTGCTA | 0.0795 |
| TTCCTTGCTATGTTGCTCAGGTGCTAG | 0.233 |
| TCAGCTTCCTCTTTACTACTGTGCTAG | 1.38 |
| TTCTCTTTTATTTTTTTTATGTGCTAG | 3.18 |
| GACGATATCAGTTTCGAGATGTGCTAG | 3.59 |
| GACGATTTCGGGACTGTAGACGTGCTA | 1.87 |
| CTTCCCCTCTCATTCCAATTGTGCTAG | 2.22 |
| TTGGGTATCGGACTGGGTTAGTGCTAG | 0.185 |
| TCACCTTACTTTATGTAACTGTGCTAG | 1.33 |
| TCACTTATCCTATCAGTACTGTGCTAG | 1.79 |
| GACGGTTTCGGGTATCGGAACGTGCTA | 5.23 |

Set 2
Target: Fragile X messenger ribonucleoprotein 1, C-terminal low-complexity region (Fmr1, Mus musculus, UniProt P35922)
Method: RNA Bind-n-Seq
Molecule type: RNA
Matrix: in vitro
Tested at: 200 nM
Notes: whole 134-nt RNA, ends assumed
Added: 150 mM KCl
Baseline: input library
Reading: higher = stronger binding
Shared flanks, not repeated: GGGAGUUCUACAGUCCGACGAUC … UGGAAUUCUCGGGUGUCAAGG
| Oligonucleotide | log2 enrichment |
| --- | --- |
| GUCCUGUGCUACACAUCGUAUGUACCGAAUCGGAAAAAAGGGGAAAAAAGGAAAAAAGGAAAGUAUUAUGUUACGCCGUUCGGAUCUGCA | -0.565 |
| UUGUGGAAAGGAGGAGAACCCCUGCUGAAAUUCGAGAGGAGUUUGAGCGGCUGCAGAGAGAGAGAGAAGAGAGGAGAUUGCAGCAGCGAA | -1.14 |
| GCAGGAAGUAAAAACAAAUGGAAAUGCUUCGGAUAGUGGCAGGGGUGGGGGUUGCUAAGGAAAGGGUGGGAUGGGAGUGUGUAAAGAGUU | 0.345 |
| CCUGUGCUACACAUCGUAUGUACCGAAUCGGGCCCCCCGGGGCCCCCCGGGCCCCCCGGGGAAAGUAUUAUGUUACGCCGUUCGGAUCUG | -1.05 |
| GCAGGAAGUAAAAACAAAUGGAAAUGCUUCGGAUAGUGGCAGGGGUGGGGGUUGCUAAGGAUAGGGUGGGAUGGGAGUGGGUAAAGAGUU | 0.136 |
| AGUCCUGUGCUACACAUCGUAUGUACCGAAUCGGGUUUUUGGGAAAGGGAAAAAGGGAAAGUAUUAUGUUACGCCGUUCGGAUCUGCACU | -0.139 |
| CCUCAAGUCCUGUGCUACACAUCGUAUGUACCGAAUCGGAAGGGAAGGGAAGGAAAGUAUUAUGUUACGCCGUUCGGAUCUGCACUUCCA | -0.317 |
| AAGUCCUGUGCUACACAUCGUAUGUACCGAAUCGGGGCCCCGGCCCCGGCCCCGGGAAAGUAUUAUGUUACGCCGUUCGGAUCUGCACUU | -0.782 |
| CCUCAAGUCCUGUGCUACACAUCGUAUGUACCGAAUCGGUUGGGUUGGUUGGAAAGUAUUAUGUUACGCCGUUCGGAUCUGCACUUCCAG | 0.291 |
| CUCAAGUCCUGUGCUACACAUCGUAUGUACCGAAUCGGUGGAAAAAGGUUUGGAAAGUAUUAUGUUACGCCGUUCGGAUCUGCACUUCCA | -0.481 |
| UCCUGUGCUACACAUCGUAUGUACCGAAUCGGGGUUUUUUGGUUUUUUGGUUUUUUGGGGAAAGUAUUAUGUUACGCCGUUCGGAUCUGC | -0.175 |
| UCAAGUCCUGUGCUACACAUCGUAUGUACCGAAUCGGAAAAAAAGGAGGUUUGGAAAGUAUUAUGUUACGCCGUUCGGAUCUGCACUUCC | -0.996 |
| AGUCCUGUGCUACACAUCGUAUGUACCGAAUCGGGGAAAGGGGAAAAAGGGGUGGGGAAAGUAUUAUGUUACGCCGUUCGGAUCUGCACU | 0.468 |
| UCAAGUCCUGUGCUACACAUCGUAUGUACCGAAUCGGUUUUUGGAAAAAGGAGGAAAGUAUUAUGUUACGCCGUUCGGAUCUGCACUUCC | -0.466 |

Set 3
Target: RING finger protein unkempt homolog, zinc fingers 1-6, GST-SBP tag (UNK, Homo sapiens, UniProt Q9C0B0, residues 30-357)
Sequence of UniProt Q9C0B0 (30-357, looked up): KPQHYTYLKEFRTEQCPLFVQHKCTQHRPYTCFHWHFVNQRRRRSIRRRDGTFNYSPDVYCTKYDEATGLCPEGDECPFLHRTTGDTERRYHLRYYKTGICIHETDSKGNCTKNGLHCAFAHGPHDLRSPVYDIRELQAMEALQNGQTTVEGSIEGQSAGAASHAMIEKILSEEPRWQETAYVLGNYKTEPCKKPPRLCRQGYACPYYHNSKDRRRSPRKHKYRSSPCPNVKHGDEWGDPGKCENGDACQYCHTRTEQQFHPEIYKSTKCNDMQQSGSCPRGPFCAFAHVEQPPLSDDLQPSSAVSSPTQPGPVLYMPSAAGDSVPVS
Method: RNA Bind-n-Seq
Molecule type: RNA
Matrix: in vitro
Tested at: not given
Notes: RNA with constant flanks, human and mouse sites, ends assumed
Baseline: input RNA pool
Reading: higher = stronger binding
Shared flanks, not repeated: GGGAGUUCUACAGUCCGACGAUC … CAACAGAGGAUUGAGCAUCA
| Oligonucleotide | bound/input enrichment [ratio] |
| --- | --- |
| CAUAGAGGAGAAGGAAAAAGAUAGCUUUACUGCUGUGGUUAUCACAGGGGUACAACCAGAACACAUACAGUACUUGAAAAAUUAUUUCCACCUUUGGACACGACAGUUAGCGCAUAUUUA | 3.5 |
| AAUCAAAAAUUGGGGCACCCCGAAGCUCUUUCUGCUGGCACAGGCUCCCCUCAACCUCCCAGCUUCACCUAUGCCCAGCAGAGGGAGAAGCCCCGAGUGCAGGAGAAGCAGCACCCCGUG | 0.11 |
| AUACAAGCCUUACCAACAAUUACAGAAACAUUAAACACUAUGACACAUUACCUUUUUAGCUAUUUUUAAUAGUCUUCUAUUUUCACUCUUGAUAAGCUUAUAAAAUCAUGAUUGAAUCAG | 13.3 |
| UUUCAUUGGCAAGCCACAAUUAUGGGACCUAAUGACAGCCCAUAUCAAGGUGGUGUAUUCUUUUUGACAAUUCAUUUUCCUACAGACUACCCCUUCAAACCACCUAAGGUUGCAUUUACA | 0.189 |
| AGACAUUUUAAGGACCUCAGGUUCAUUAAAAAGGACUUAGAACUUUUCUCAAAUCCAUUUAGCUUUAAACCGGAAUAUGCGCCUAUUUCUGUAAGAGUGGAGCUAACAAAACUUCAGGCC | 1.05 |
| CUGUUCUCCUAUGGUUGAUAAAGCUUUAAAUACUAUUUAAAGUGGUUCUGGUCUGUACUUACUAGCACUUCCCUGAACAGUCUCAAAAUAGCCUAAACAUAAGAAAACAAUCCUGCAAAG | 0.361 |
| ACCCUGGAAGAAGAAACAGUGAUGCUUGCAAUGACUCCAGAUGAUUUACAGGAGAAAGAAGUAGCUUAUUGUUCCACAUAUACACACUGUGAGAUUCAUCCCUCAAUGAUCCUUGGUGUC | 0.255 |
| AAAGAGCCAGUGGUUGUUGAGACAGUAGAAGAGAAAAAGGAACCUAUCCUAGUGUGUCCACCUUUACGAAGCCGAGCAUACACACCACCUGAAGAUCUCCAGAGUCGUUUGGAAUCUUAC | 0.161 |
| GCUGCCCUUUCUGUUCGUAAUCUUUCACCUUAUGUUUCCAAUGAACUGUUGGAAGAAGCCUUUAGCCAAUUUGGUCCUAUUGAAAGGGCUGUUGUAAUAGUGGAUGAUCGUGGAAGAUCU | 0.18 |
| ACGAAAUAUCGUGUCUUGAAGAUUGAUAGAACAGAACCAAAAGAUUUGGUCAUAAUUGAUGACAGGCAUGUCUAUACUCAACAAGAAGUAAGGGAACUUCUUGGCCGCUUGGAUCUUGGA | 0.179 |
| AGUUAUUCAGCAGGAAGGGGCUUAGAGGGGAAUGCUAACUCACCUGCCCACCUGAGAGGACCAGAACAGACGUCUGGGCAGACGGCUAAGGAUCCCUCUGUCAGCAUUCGCUAUUUGGCA | 0.218 |

Set 4
Target: CCNA2, cyclin fold, Cln2 fusion (human)
Method: yeast growth competition, sequencing
Matrix: yeast
Notes: strong parent motif
Baseline: not given
Reading: higher = stronger binding
Parent: SCAPER docking peptide (human); SNARRSLNFGGST
| Change | normalised enrichment score |
| --- | --- |
| YNARRSLNFGGST [S1Y] | 5.77 |
| SNARRSLNFGGLT [S12L] | 6.66 |
| SNARRSLNAGGST [F9A] | 0.668 |
| SNARRSLNTGGST [F9T] | 0.672 |
| SNARLSLNFGGST [R5L] | 0.728 |
| SNTRRSLNFGGST [A3T] | 5.25 |
| SNARRLLNFGGST [S6L] | 4.74 |
| SNARRSLNFQGST [G10Q] | 5.73 |
| SNKRRSLNFGGST [A3K] | 0.996 |
| SNARRSLGFGGST [N8G] | 3.17 |
| SNARRPLNFGGST [S6P] | 3.2 |
| SNARRSLIFGGST [N8I] | 4.8 |
| SNARRYLNFGGST [S6Y] | 5.3 |
| SNARRSLNIGGST [F9I] | 1.15 |
| SDARRSLNFGGST [N2D] | 4.75 |
| SNARRSLNFEGST [G10E] | 5.65 |
| SNARRSLNFGGAT [S12A] | 6.62 |
| SNARRSLNFGPST [G11P] | 6.08 |
| SNARRSLNFGGTT [S12T] | 6.25 |

Excerpt of the above (set 4):
| Change | normalised enrichment score |
| --- | --- |
| SNARRSLIFGGST [N8I] | 4.8 |
| SNARRSLNFQGST [G10Q] | 5.73 |
| SNKRRSLNFGGST [A3K] | 0.996 |
| SNARRSLNTGGST [F9T] | 0.672 |
| SNARRYLNFGGST [S6Y] | 5.3 |
| YNARRSLNFGGST [S1Y] | 5.77 |
| SNARRSLNFGGLT [S12L] | 6.66 |
| SNARRSLNFEGST [G10E] | 5.65 |
